Measurements of several laboratories.
Each numbered part is a random draw from the data of one study; scales do not carry over between parts.

Study 1
Target: Interferon regulatory factor 5, full length, phosphomimetic (IRF5, Homo sapiens, UniProt Q13568-2, residues 1-514, K96S/S451D/S453D/S456D/S462D)
Technique: protein-binding microarray
Molecule type: double-stranded DNA, one strand shown
Medium: in vitro
Tested at: 250 nM
Notes: 60-bp whole probe
Added: salmon DNA 0.4 mg/ml
Baseline: random background probes
Direction: higher = stronger binding
`GCCTAGCACGACGGTTTCGACTATGGGGACGTGCTAGTCTTGATTCGCTTGACGCTGCTG` has a log fluorescence of 5.97 z-score.
For `GCCTAGCACAACGGTTTCCTTCTCCTGACGTGCTAGGTCTTGATTCGCTTGACGCTGCTG`, the log fluorescence was 1.19 z-score.
With `GCCTAGCACTCATCTTTCCATACTGCACTGTGCTAGGTCTTGATTCGCTTGACGCTGCTG` the log fluorescence was 1.31 z-score.
The log fluorescence of `GCCTAGCACGACGGTTCCGGACTGGGGACGTGCTAGGTCTTGATTCGCTTGACGCTGCTG` is reported as -0.183 z-score.

Study 2
Target: Prothrombin, mature alpha-thrombin (F2, Homo sapiens, UniProt P00734)
Technique: aptamer microarray, sandwich
Molecule type: DNA with 2'F-ANA
Medium: in vitro
Tested at: 200 nM
Notes: whole 15-mer aptamer, many near background
Added: Cy3 exosite-II aptamer, 400 nM
Direction: higher = stronger binding
`GGTTGGTGTGGTTGG (2'F-ANA at 3 4 6 11 12 13)`: “mean fluorescence intensity” 621 a.u.
`GGTTGGTGTGGTTGG (2'F-ANA at 1 2 3 4 5 7 8 12 13 14)`: “mean fluorescence intensity” 54.1 a.u.
`GGTTGGTGTGGTTGG (2'F-ANA at 2 4 5 7 9 10 12 13)`: “mean fluorescence intensity” 73 a.u.
Under “mean fluorescence intensity”, `GGTTGGTGTGGTTGG (2'F-ANA at 3 4 6 7 9 12 13)` is recorded as 586 a.u.

Study 3
Target: Histone acetyltransferase KAT6A, winged helix 1, GST fusion (KAT6A, Homo sapiens, UniProt Q92794, residues 1-85)
Technique: protein binding microarray
Molecule type: double-stranded DNA, one strand shown
Medium: in vitro
Tested at: not given
Notes: 8-mer, flanks averaged, mean of 2 arrays, mostly near background
Baseline: not given
Direction: higher = stronger binding
Construct (chain): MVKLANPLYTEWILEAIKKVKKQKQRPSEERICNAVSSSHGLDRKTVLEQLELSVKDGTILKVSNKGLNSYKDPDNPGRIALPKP
For `CAGACAGG`, the E-score was -0.0189.
The E-score of `CTTGACGC` is reported as 0.154.
For `ATCTTTAC`, the E-score was 0.018.
For `GCTTTAAC`, the E-score was 0.0917.

Further values, each from its own experiment
With `PhoQ, residues 284 288 289 292 302 303 ASVMEA` the fold induction was 6.88 (PhoP, residues 12 14 15 18 19 QQAYL (Escherichia coli, UniProt P23836); Sort-seq, item: YFP reporter; E. coli; PhoQ-PhoP variant library, added: 10 µM Mg2+; baseline: high Mg2+ state, higher = stronger signaling).

Some of these lines once more (study 3):
For `GCTTTAAC`, the E-score was 0.0917.
